# Measurements pooled from the literature.
# “And” joins repeats or separate records; there may be more than shown. Numbers after ± are the reported error.
Structure (SMILES),assay,system,setting,how to read,endpoint,value
C[C@@H](N)C1CCN(S(=O)(=O)c2cccc3cnccc23)CC1,,healthy volunteers,"oral, 250 mg, single ascending dose, fasted",,incidence of syncope,33.3%
CCOc1c([C@H](C)n2nc(C)c3c(N)ncnc32)cc(Cl)c(F)c1[C@@H]1CNC(=O)C1,ECG,previously treated B-cell malignancy patients,"oral, 15 mg once daily, baseline below thresholds",,observations with HR above 100 bpm,0%
COc1ncc(-c2nc3c(n2C(C)C)[C@H](c2ccc(Cl)cc2)N(c2cc(Cl)cn(C)c2=O)C3=O)c(OC)n1,LC-MS/MS,"human, plasma","oral, 20 mg, cycle 1 day 8, low-dose arm",,AUC(0-last),1130 ng·h/mL
Cn1cc(Nc2nccc(-c3ccc4c(c3)CN(C3COC3)CC[C@H]4NC(=O)c3cn(C(C)(C)C)nn3)n2)cn1,,"human, whole blood","150 mg twice daily, day 7",relative to: pre-dose baseline,NKT cell count change,42.2%
[18F]c1ccc(-c2ccc3c(c2)[nH]c2ccncc23)cn1,ex vivo biodistribution,"B6SJL mouse, normal, liver","intravenous, 30 min",,SUV,4.04 ± 1.8
CCCCC1=NC2(CCCC2)C(=O)N1Cc1ccc(-c2ccccc2S(=O)(=O)Nc2noc(C)c2C)c(COCC)c1,,"healthy adult volunteers, plasma","oral, 50 mg, 14 days repeated dosing, fasted, crushed tablet",,AUC(0-inf),11900 ng·h/mL
Cc1c(C(=O)O)ccc2c3n(nc12)[C@@H]1[C@H](C3)N(CC2CC2)[C@@]2(C(=O)Nc3cc(Cl)ccc32)[C@H]1c1cccc(Cl)c1F,,human patients phase Ia,"oral, dose not given, grade ≥3, all patients",,abdominal pain incidence,1.9%
N#Cc1ccc2c(c1)[C@H]1CCCN(C(=O)c3ccc4[nH]cnc4c3)[C@H]1C2,,human,"240 mg, day 15",,mean ACTH level,7.9 pmol/L
CCCCc1ccc(-c2ccc(C#N)cc2)cc1,,"Sprague-Dawley rat, female, placenta","5000 ng/mL in perfusate, 50 (unit not given), high dose, mixture of 21 LCMs",,median placental accumulation,336 ng/g
CC1(C)C(/C=C/C2=C(Cl)C(=C/C=C3\N(CCCCCC(=O)O)c4ccccc4C3(C)C)/CCC2)=[N+](CCCCCC(=O)O)c2ccccc21,,water,,,molar absorption coefficient,57500 M⁻¹ cm⁻¹
N#CCNC(=O)c1ccc(-c2ccnc(Nc3ccc(N4CCOCC4=O)cc3)n2)cc1,,"healthy volunteers, plasma","dose not given, together with: rifampin multiple-dose",relative to: with rifampin over alone,AUCinf geometric mean ratio,96%
COc1ccc2c(c1)CN(C(=O)CCN1CCC(Cc3ccccc3)CC1)CC[S@@+]2[O-],telemetry,conscious male beagle dogs,"intravenous, 8 mg/kg, 4 h",,QTc interval,251 ± 4 ms
CCO,,healthy Chinese men,"0.5 g/kg, together with: placebo",,AUEC(0-4 h) pulse rate,16.7 ± 12.3 h·bpm
COc1ccc2[nH]cc(CCNC(=O)Nc3ccc(Cl)c(Cl)c3)c2c1,,aqueous buffer,pH 7.4,,thermodynamic solubility,< 7.14 µM
O=C(OC(C(F)(F)F)C(F)(F)F)N1CCN(Cc2cccc(Oc3ccccc3)c2)CC1,PET blocking study,"rhesus monkey, brain HIP","0.01 mg/kg, compound pretreatment, together with: [18F]T-401 tracer",,k2,0.081 min⁻¹
FC(F)(F)c1ccc(CNc2ccc(Cc3c[nH]c4ncc(Cl)cc34)cn2)cn1,,patients with advanced solid tumours,"oral, dose not given, phase Ib, possibly related to compound",,"adverse events, any",31%
COc1cccc(-c2n[nH]c(SCc3ccccn3)n2)c1OC,,"Sprague-Dawley rats, both sexes","oral dietary, 10 mg/kg/day, day 90, 12 h",,plasma concentration,525 ng/mL
Cc1ccc([C@@H]2O[C@H](CO)[C@@H](O)[C@H](O)[C@H]2O)cc1Cc1ccc(-c2ccc(F)cc2)s1,,Japanese type 2 diabetes patients,"400 mg, day 18, 24 h urine collection",relative to: baseline,urinary sodium excretion change,-11.8 mEq
O=C(Nc1cnccc1Cl)N1CCN(Cc2ccc3c(c2)OC(F)(F)O3)CC1,multiple ascending dose,young women,"100 mg, treatment-emergent adverse events",,back pain incidence,33.3%
Clc1cccc(Nc2ncnc3ccc(-c4cccc(N5CCOCC5)c4)cc23)c1,,0.1 M phosphate buffer,"pH 7.4, 25 °C",,thermodynamic solubility,12 µM
Cn1cc([C@H]2C[C@H]3CSC(N)=N[C@@]3(c3ccc(F)cc3F)CO2)cn1,,"male 129/SVE mouse, CSF","subcutaneous, 50 mg/kg, 13 h",,CSF concentration,89 nM
Cc1nc2cccc(OCC(C)(C)C(=O)NC(C)C)c2c(N)c1C(=O)O,,"Sprague-Dawley rat, male, plasma","oral, 30 mg/kg, day 7 over day 1, 7-day repeated dosing",relative to: day 7 over day 1,AUClast ratio,0.95 ± 0.15
FC(F)(F)c1ccc(CNc2ccc(Cc3c[nH]c4ncc(Cl)cc34)cn2)cn1,measured: Dizziness,"patients with advanced solid tumours, non-TGCT cohort","oral, 1000 mg/day, grade 3 or higher",,treatment-related adverse events,0%
COc1cccc(OC)c1-c1cc(C(=O)NC2(C(=O)O)C3CC4CC(C3)CC2C4)nn1-c1ccc(C(=O)N(C)CCCN(C)CCCN(C)C(=O)CN2CCN(CC(=O)[O-])CCN(CC(=O)[O-])CCN(CC(=O)[O-])CC2)cc1C(C)C.[177Lu+3] (stereo not shown),,"mouse, HT-29 xenograft","72 h post injection, biodistribution",relative to: tumour over muscle uptake,tumour-to-muscle ratio,76.4
CC(C)C[C@H](NC(=O)[C@H](CC(C)C)NC(=O)[C@H](Cc1c[nH]c2ccccc12)NC(=O)[C@H](CCC(=O)O)NC(=O)[C@@H](NC(=O)[C@H](Cc1ccccc1)NC(=O)[C@H](CCC(=O)O)NC(=O)[C@H](CCCCNC(=O)COCCOCCNC(=O)COCCOCCNC(=O)CC[C@H](NC(=O)CCCCCCCCCCCCCCCCCCC(=O)O)C(=O)O)NC(=O)[C@H](C)NC(=O)[C@H](CCCCN)NC(=O)[C@H](CCCCN)NC(=O)[C@H](CCC(=O)O)NC(=O)[C@H](CC(=O)O)NC(=O)[C@H](CC(C)C)NC(=O)[C@H](Cc1ccc(O)cc1)NC(=O)[C@H](CCCCN)NC(=O)[C@H](CO)NC(=O)[C@H](Cc1ccc(O)cc1)NC(=O)[C@H](CC(=O)O)NC(=O)[C@H](CO)NC(=O)[C@@H](NC(=O)[C@H](Cc1ccccc1)NC(=O)[C@@H](NC(=O)CNC(=O)[C@H](CCC(N)=O)NC(=O)C(C)(C)NC(=O)[C@@H](N)Cc1c[nH]cn1)[C@@H](C)O)[C@@H](C)O)C(C)C)C(=O)N[C@@H](CCC(=O)O)C(=O)NCC(=O)NCC(=O)N1CCC[C@H]1C(=O)N[C@@H](CO)C(=O)N[C@@H](CO)C(=O)NCC(N)=O,,"human, plasma","subcutaneous, 16 mg once weekly, week 20, geometric mean",,MRT,291 h
CCC[C@H]1CC[C@H](c2ccc(C#N)cc2)CC1,,"Sprague-Dawley rat, female, placenta","1000 ng/mL in perfusate, 50 (unit not given), middle dose, mixture of 21 LCMs",,median placental accumulation,170 ng/g
Cc1ccc(O)c(-n2nc3ccccc3n2)c1,,human aged 6-11 years,"concentration not given, spray sunscreen, mean",,daily dermal exposure dose,923 ng/kg/day
C[C@@H](NC(=O)N1C(=O)[C@H](Cc2ccnc(N)c2)[C@H]1C(=O)O)C1CCCCC1,UPLC-MS/MS,"healthy adult Chinese volunteers, plasma","continuous intravenous infusion, 0.6 mg/kg/h, day 6 of 5-day infusion, mean",,Vd,0.544 L/kg
NC1(C(=O)N[C@@H](CCO)c2ccc(Cl)cc2)CCN(c2nc[nH]c3nccc2-3)CC1,,metastatic CRPC patients,"400 mg b.i.d., grade 3 to 4, treatment-related, together with: enzalutamide 160 mg daily",,incidence of Erythema,0%
CNC(=O)c1ccc(-c2cnc3ncc(Cc4ccc5ncccc5c4)n3n2)cc1F,"phase 1 clinical trial, measured: blood creatinine increased",HCC expansion cohort,"oral, 600 mg twice daily, grade 3 or 4",,adverse event incidence,9%
CN(C(=O)n1cnc(-c2cccnc2)c1)[C@H]1CC[C@H](O)CC1,,"rat, hippocampus","oral, 10 mg/kg single dose, 4 h",,tissue concentration,37.6 ± 9.5 ng/g
CNCc1ccc(-c2[nH]c3cc(F)cc4c3c2CCNC4=O)cc1,,human patients,"oral, 600 mg twice daily, grade 2",,nausea incidence,11.5%
N#CC1CCN(c2nc(-c3ccccn3)nc3ccccc23)CC1,,Japanese Pharmacopoeia disintegration test solution 2,pH 6.8,,kinetic solubility,74 µg/mL
C[C@@H](Nc1cc(F)cc(F)c1)c1cc(C(=O)N(C)C)cc2c(=O)cc(N3CCOCC3)oc12,,"human, plasma","oral, 240 mg, day 1 single dose",,t1/2 geometric mean,3.52 h
CCc1c(-c2ccccc2)c(-c2ccccc2)nn1-c1ccccc1-c1cccc(OCC(=O)O)c1,,Sprague-Dawley rat,"intravenous, dose not given",,AUC(all),2390 ng·h/mL and 3090 ng·h/mL and 3250 ng·h/mL
CN(CCCN1CCN(C(=O)CN2CCN(CC(=O)[O-])CCN(CC(=O)[O-])CCN(CC(=O)[O-])CC2)CC1)c1ccc2nccc(C(=O)NCC(=O)N3CC(F)(F)C[C@H]3C#N)c2c1.[68Ga+3],,"mice, HT-1080.hFAP and HT-1080 wild-type xenografts, adrenal","iv, 500 pmol, 1 h post injection",,uptake,0.5 ± 0.2 %IA/g
O=S(=O)(NCc1ccccn1)c1cc(Cl)c(Cl)cc1Cl,,aqueous buffer,pH 7.4,,thermodynamic solubility,< 10.7 µM
O=C(Nc1nc2cccc(-c3ccc(CN4CCS(=O)(=O)CC4)cc3)n2n1)C1CC1,measured: pyrexia,rheumatoid arthritis patients,"oral, 150 mg once daily, 4 weeks, any relatedness",,treatment-emergent adverse events,0%
Cc1cccc(CNC(=O)c2cn(CCNC(=O)c3ccccc3S)c3cc4c(cc3c2=O)OC(F)(F)O4)n1,,"Sprague-Dawley rat, male, plasma","intravenous, 5 mg/kg of parent drug",,Cmax,269 ± 48.7 ng/mL
CCN1CCN(Cc2ccc(NC(=O)c3ccc(C)c(NC(=O)c4cncc(-c5cccs5)c4)c3)cc2C(F)(F)F)CC1,LC-MS/MS,"C57BL/6 mouse, plasma","intraperitoneal, 10 mg/kg single dose, 0.5 h",,plasma concentration,416 ng/mL and 581 ng/mL and 468 ng/mL
CCc1cc(C(=O)NC)c2nccc(N3CCc4c(cc(Cn5ccnc5)cc4-c4cn(C)nc4C(F)(F)F)C3=O)c2c1,,Sprague Dawley rats,"oral, 100 mg/kg twice daily, 7 days",relative to: vehicle,serum ALT change,-8.8%
COc1ccc2[nH]c([S+]([O-])Cc3ncc(C)c(OC)c3C)nc2c1 (stereo not shown),,"healthy Chinese volunteers CYP2C19 PM, plasma","oral, 20 mg single dose, fasted",,AUC(0-t),3800 ± 1600 ng·h/mL
CCN1/C(=C/C(C)=O)Sc2ccc(F)cc21,,cynomolgus monkey,"oral, 100 mg/kg, 1 h post-dose",relative to: pre-dose,QTc interval change,101 ± 3.7%
CCCCOC(=O)N1CCN(C(=O)[C@H](CP(=O)(O)O)NC(=O)c2cc(N3CC[C@H](OC)C3)nc(-c3ccccc3)n2)CC1,,human,"subcutaneous, 16 mg, 1 h post-dose",relative to: baseline,change in QT interval,11.9 ± 16.1 ms
C[C@@]1(c2cc(NC(=O)c3ccc(C#N)cn3)ccc2F)C=CSC(N)=N1,,"elderly humans, both sexes, plasma","oral, 90 mg single dose",,dose-normalised AUC(0-last),97.8 ng·h/mL
Cc1cc(-c2nccc3c2ccn3CC(=O)Nc2ccc(-c3cnccn3)cn2)ccn1,,human,"15 mg once daily, multiple ascending dose",,medical device site dermatitis,66.7%
CN1C(=O)[C@@H](NC(=O)c2nnc(Cc3ccccc3)[nH]2)COc2cccnc21,phase I single ascending dose,"human, male and female","oral, 100 mg, fasted",,medical device site reaction incidence,0%
O=C(O)CCC(=O)O.[2H]C([2H])([2H])Oc1cc(C)c2[nH]ccc2c1CN1CC[C@@H](C2CC2)C[C@H]1c1ccc(C(=O)O)cc1,multiple ascending dose,healthy Chinese subjects,300 mg once daily,,subjects with elevated bilirubin TEAE,0%
Cc1nn(CC(F)(F)F)cc1Nc1nccc(NCc2ccc(S(N)(=O)=O)cc2)n1,PAMPA,PBS,"5 h, pH 7.4",,PAMPA permeability,not detected
Nc1ccc(C=Cc2ccc([125I])cc2)cc1,HPLC,,"up to 8 h, room temperature",,storage stability,stable
O=C1CCc2ccc(OCCCCN3CCN(c4cccc(Cl)c4Cl)CC3)cc2N1,,CYP2D6 normal metabolizers,"concentration not given, genotype-based phenotype, long-acting oral or depot",,extrapyramidal symptom frequency,7.3%
COC(=O)c1ccc2c(c1)NC(=O)/C2=C(\Nc1ccc(N(C)C(=O)CN2CCN(C)CC2)cc1)c1ccccc1,,"healthy volunteers, plasma","oral, 150 mg, together with: pirfenidone",,AUCinf,230 ng·h/mL
Cn1nccc1-c1nc(N2CCC(c3ccccn3)C2)c2ccccc2n1 (stereo not shown),,Japanese Pharmacopoeia disintegration test solution 2,pH 6.8,,kinetic solubility,3 µg/mL
COc1cc2[nH]c(C)c(-c3ccccc3CO)c(=O)c2cc1Cl,,,pH 7.4,,kinetic solubility,12 to 20 µM
Cc1cc(C)c(CNC(=O)c2cc(Cl)c3c(c2C)O[C@@](C)([C@H]2CC[C@H](N(C)C)CC2)O3)c(=O)[nH]1,radiochromatography,"human, feces","oral, 200 mg",relative to: dose,fecal excretion,68.8% and 66.7% and 71.7% and 79.3%
O=C(Nc1ccc(OC(F)(F)Cl)cc1)c1cnc(N2CC[C@@H](O)C2)c(-c2ccn[nH]2)c1,"per treatment cycle, measured: AST increase",human patients,"oral, dose not given, 28 day cycle, dose-finding study",,grade ≥2 event rate,0.4%
Cc1ccc(Sc2ccccc2N2CCNCC2)c(C)c1,measured: feeling abnormal,healthy adult men,"oral, 5 mg daily, 12 days",,participants with TEAE,0%
COc1ccnc(C(=O)NC(CO)C(=O)O)c1O (racemic),aerobic dark soil incubation,silt loam soil,"20 °C, persistence endpoint",,DT50,1.99 days

# For quick reference, copied from above:
Structure (SMILES),assay,system,setting,how to read,endpoint,value
COc1ccnc(C(=O)NC(CO)C(=O)O)c1O (racemic),aerobic dark soil incubation,silt loam soil,"20 °C, persistence endpoint",,DT50,1.99 days
FC(F)(F)c1ccc(CNc2ccc(Cc3c[nH]c4ncc(Cl)cc34)cn2)cn1,,patients with advanced solid tumours,"oral, dose not given, phase Ib, possibly related to compound",,"adverse events, any",31%
CCOc1c([C@H](C)n2nc(C)c3c(N)ncnc32)cc(Cl)c(F)c1[C@@H]1CNC(=O)C1,ECG,previously treated B-cell malignancy patients,"oral, 15 mg once daily, baseline below thresholds",,observations with HR above 100 bpm,0%
C[C@@H](Nc1cc(F)cc(F)c1)c1cc(C(=O)N(C)C)cc2c(=O)cc(N3CCOCC3)oc12,,"human, plasma","oral, 240 mg, day 1 single dose",,t1/2 geometric mean,3.52 h
COc1ccc2[nH]cc(CCNC(=O)Nc3ccc(Cl)c(Cl)c3)c2c1,,aqueous buffer,pH 7.4,,thermodynamic solubility,< 7.14 µM
